Results pooled from the literature.
Protocols differ between the studies behind these lines. ± marks the error that the study gave.
Sequence of UniProt P21802 (whole entry, unmodified, looked up): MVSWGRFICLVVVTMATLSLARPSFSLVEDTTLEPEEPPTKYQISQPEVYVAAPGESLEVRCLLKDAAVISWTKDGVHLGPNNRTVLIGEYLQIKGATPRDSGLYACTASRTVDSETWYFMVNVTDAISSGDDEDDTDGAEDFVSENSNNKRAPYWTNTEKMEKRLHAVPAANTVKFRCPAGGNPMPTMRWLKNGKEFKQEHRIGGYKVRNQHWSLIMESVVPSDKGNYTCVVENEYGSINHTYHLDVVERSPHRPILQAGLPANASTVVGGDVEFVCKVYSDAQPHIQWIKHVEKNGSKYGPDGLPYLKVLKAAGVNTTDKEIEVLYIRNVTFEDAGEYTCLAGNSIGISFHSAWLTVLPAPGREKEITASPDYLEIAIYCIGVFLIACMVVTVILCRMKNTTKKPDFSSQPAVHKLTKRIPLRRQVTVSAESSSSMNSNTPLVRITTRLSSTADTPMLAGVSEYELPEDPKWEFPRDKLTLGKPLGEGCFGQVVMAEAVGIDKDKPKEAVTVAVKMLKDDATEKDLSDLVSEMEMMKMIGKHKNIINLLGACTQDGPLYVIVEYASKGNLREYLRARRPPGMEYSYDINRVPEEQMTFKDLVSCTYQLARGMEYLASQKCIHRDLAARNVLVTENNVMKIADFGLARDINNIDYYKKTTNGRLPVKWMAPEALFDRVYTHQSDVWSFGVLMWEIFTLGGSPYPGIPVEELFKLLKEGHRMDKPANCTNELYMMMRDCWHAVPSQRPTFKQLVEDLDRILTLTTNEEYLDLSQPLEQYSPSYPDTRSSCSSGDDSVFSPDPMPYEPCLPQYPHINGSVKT
Sequence of UniProt Q96PF2 (whole entry, looked up): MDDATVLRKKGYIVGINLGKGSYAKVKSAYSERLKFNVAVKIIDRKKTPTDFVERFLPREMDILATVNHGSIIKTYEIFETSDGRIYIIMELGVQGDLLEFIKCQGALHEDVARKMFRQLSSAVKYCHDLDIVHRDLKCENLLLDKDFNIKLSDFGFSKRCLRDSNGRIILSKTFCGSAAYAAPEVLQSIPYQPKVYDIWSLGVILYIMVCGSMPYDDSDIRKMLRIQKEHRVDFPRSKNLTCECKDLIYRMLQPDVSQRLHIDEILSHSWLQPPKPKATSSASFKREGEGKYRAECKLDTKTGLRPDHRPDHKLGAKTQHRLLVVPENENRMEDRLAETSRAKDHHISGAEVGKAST
Sequence of UniProt Q15303 (whole entry, looked up): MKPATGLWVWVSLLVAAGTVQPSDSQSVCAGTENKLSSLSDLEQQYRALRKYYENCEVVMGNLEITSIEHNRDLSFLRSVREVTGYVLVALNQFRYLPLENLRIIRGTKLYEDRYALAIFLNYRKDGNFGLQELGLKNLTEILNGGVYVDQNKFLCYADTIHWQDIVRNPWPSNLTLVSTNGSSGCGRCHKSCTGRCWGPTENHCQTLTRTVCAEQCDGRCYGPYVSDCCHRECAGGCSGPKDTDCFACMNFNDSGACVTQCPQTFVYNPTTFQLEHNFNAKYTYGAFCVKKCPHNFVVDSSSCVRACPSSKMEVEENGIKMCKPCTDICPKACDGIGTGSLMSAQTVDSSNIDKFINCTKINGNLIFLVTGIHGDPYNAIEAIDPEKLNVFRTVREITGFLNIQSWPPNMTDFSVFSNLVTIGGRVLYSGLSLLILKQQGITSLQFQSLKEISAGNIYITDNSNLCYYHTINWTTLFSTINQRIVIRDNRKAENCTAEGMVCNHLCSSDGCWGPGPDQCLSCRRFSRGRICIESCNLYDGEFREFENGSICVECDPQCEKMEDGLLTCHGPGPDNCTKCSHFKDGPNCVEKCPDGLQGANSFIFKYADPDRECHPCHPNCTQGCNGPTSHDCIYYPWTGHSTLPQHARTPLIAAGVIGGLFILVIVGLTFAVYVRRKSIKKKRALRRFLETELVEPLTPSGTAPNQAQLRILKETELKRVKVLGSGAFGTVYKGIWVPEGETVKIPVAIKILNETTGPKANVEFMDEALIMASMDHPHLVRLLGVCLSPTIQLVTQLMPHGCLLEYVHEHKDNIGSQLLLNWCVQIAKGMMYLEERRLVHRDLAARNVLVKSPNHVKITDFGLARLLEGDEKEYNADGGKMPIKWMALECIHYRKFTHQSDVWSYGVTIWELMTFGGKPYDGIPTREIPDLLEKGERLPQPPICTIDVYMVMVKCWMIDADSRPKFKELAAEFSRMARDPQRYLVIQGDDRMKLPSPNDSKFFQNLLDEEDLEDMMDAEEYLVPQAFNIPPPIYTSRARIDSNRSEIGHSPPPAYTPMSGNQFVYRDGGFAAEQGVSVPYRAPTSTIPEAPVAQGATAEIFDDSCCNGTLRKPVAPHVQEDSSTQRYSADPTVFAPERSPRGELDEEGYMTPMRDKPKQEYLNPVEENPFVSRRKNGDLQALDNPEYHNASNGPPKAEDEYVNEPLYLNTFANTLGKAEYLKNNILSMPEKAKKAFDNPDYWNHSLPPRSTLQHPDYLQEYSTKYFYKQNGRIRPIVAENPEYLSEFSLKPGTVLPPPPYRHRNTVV
Sequence of UniProt Q9Y572 (whole entry, looked up): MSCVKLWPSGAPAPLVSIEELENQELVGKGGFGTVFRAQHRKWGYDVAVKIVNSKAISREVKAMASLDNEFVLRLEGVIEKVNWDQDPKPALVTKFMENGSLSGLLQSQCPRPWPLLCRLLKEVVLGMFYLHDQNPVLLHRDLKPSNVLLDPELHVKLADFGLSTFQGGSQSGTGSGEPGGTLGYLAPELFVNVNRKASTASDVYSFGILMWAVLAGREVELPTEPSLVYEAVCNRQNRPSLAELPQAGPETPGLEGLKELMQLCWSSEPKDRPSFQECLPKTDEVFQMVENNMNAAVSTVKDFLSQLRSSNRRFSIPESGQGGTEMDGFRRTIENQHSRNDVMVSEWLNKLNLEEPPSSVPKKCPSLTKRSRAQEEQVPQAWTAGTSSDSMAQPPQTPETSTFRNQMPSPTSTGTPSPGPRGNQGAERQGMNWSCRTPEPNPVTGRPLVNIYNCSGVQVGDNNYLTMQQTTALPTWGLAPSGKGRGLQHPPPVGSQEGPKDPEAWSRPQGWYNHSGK
Sequence of UniProt P45984 (whole entry, looked up): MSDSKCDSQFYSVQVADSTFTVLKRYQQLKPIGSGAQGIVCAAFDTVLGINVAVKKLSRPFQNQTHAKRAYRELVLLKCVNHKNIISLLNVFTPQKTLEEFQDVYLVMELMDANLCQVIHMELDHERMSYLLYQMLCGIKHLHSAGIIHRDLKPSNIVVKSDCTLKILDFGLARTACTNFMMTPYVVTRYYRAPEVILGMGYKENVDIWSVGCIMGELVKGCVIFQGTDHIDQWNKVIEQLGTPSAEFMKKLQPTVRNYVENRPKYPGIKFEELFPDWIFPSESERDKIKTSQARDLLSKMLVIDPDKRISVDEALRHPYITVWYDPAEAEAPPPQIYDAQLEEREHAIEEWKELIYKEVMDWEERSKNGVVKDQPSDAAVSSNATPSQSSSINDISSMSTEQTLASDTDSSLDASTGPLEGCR
Sequence of UniProt Q8TDX7 (whole entry, looked up): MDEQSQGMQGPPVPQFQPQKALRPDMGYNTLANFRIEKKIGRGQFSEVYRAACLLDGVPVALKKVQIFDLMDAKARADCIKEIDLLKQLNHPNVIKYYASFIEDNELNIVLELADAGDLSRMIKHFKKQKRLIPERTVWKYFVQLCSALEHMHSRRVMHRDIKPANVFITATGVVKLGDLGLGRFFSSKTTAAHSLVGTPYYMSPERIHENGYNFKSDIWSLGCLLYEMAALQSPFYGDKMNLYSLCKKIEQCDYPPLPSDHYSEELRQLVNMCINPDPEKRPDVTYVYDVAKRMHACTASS

With COc1cc(-c2cncc3c2CN(C)Cc2cc(N4CCNCC4)ccc2-3)cc(OC)c1OC the remaining activity was 95% (FGFR2 (Homo sapiens, UniProt P21802, N549H); kinase activity; 1 µM, added: ATP 10 µM; relative to: DMSO control).
The remaining activity of COc1cc(F)ccc1-c1ncnc(Nc2cccc(C[S@](C)(=N)=O)c2)n1 is reported as 100% (NEK7 (Homo sapiens, UniProt Q8TDX7); kinase activity; 10 µM, added: 10 µM ATP).
With COc1cc(Nc2ncc3c(n2)-c2ccc(Cl)cc2C(c2c(F)cccc2OC)=NC3)ccc1C(=O)O the remaining activity was 108% (PRKCH; kinase activity; 1 µM).
For Cc1cc(NC(=O)c2cccc(NC(=O)/C=C/CN(C)C)c2)ccc1Nc1nccc(-c2cccnc2)n1, the remaining activity was 0.954 (MAPK9 (Homo sapiens, UniProt P45984); enzyme activity, inhibitor; 2.788e-05 µM, unit not given; relative to: vehicle).
CNC(=O)c1cc(Oc2ccc(NC(=O)Nc3ccc(Cl)c(C(F)(F)F)c3)cc2)ccn1 has a remaining activity of 80.4% (Cyclin-dependent kinase 2, with cyclin A2 (CDK2, Homo sapiens, UniProt P24941); kinase activity, inhibitor, ADP-Glo kinase; 1 nM).
For COc1ccc(F)cc1C(=O)NCc1ccc(-c2nn([C@@H](C)C(F)(F)F)c(N)c2C(N)=O)cc1, the remaining activity was 122.6 ± 1.1% (RIPK3 (Homo sapiens, UniProt Q9Y572); kinase activity, inhibitor, HotSpot radiometric; 100 nM, added: ATP 10 µM).
With Cc1cc(Nc2cc(N3CCN(C)CC3)nc(Sc3ccc(NC(=O)C4CC4)cc3)n2)[nH]n1 the remaining activity was 98% (TSSK2 (Homo sapiens, UniProt Q96PF2); kinase activity, KinaseProfiler; 0.03 µM, species human; relative to: control).
The remaining activity of C=CC(=O)N1CCC[C@@H](n2nc(-c3ccc(Oc4ccccc4)cc3)c3c(N)ncnc32)C1 is reported as 82.6 ± 0.7% (FGFR2 (Homo sapiens, UniProt P21802); kinase activity, inhibitor, HotSpot radiometric; 100 nM, added: ATP 10 µM).
For O=C(O)c1ccc(Nc2ncc3c(n2)-c2ccc(Cl)cc2C(c2c(F)cccc2F)=NC3)cc1, the remaining activity was 96% (MAPK2(h); kinase activity; 1 µM).
C=CC(=O)N1CCC[C@@H](n2nc(-c3ccc(Oc4ccccc4)cc3)c3c(N)ncnc32)C1 has a remaining activity of 44.1% (ERBB4 (Homo sapiens, UniProt Q15303); 1 µM).

For quick reference, copied from above:
For COc1ccc(F)cc1C(=O)NCc1ccc(-c2nn([C@@H](C)C(F)(F)F)c(N)c2C(N)=O)cc1, the remaining activity was 122.6 ± 1.1% (RIPK3 (Homo sapiens, UniProt Q9Y572); kinase activity, inhibitor, HotSpot radiometric; 100 nM, added: ATP 10 µM).
